Assay results gathered from unrelated publications.
Each line is one published result; not all experiments were run side by side.
Target: Tyrosine-protein kinase ABL1 (ABL1, Homo sapiens, UniProt P00519)
Sequence of UniProt P00519 (whole entry, looked up): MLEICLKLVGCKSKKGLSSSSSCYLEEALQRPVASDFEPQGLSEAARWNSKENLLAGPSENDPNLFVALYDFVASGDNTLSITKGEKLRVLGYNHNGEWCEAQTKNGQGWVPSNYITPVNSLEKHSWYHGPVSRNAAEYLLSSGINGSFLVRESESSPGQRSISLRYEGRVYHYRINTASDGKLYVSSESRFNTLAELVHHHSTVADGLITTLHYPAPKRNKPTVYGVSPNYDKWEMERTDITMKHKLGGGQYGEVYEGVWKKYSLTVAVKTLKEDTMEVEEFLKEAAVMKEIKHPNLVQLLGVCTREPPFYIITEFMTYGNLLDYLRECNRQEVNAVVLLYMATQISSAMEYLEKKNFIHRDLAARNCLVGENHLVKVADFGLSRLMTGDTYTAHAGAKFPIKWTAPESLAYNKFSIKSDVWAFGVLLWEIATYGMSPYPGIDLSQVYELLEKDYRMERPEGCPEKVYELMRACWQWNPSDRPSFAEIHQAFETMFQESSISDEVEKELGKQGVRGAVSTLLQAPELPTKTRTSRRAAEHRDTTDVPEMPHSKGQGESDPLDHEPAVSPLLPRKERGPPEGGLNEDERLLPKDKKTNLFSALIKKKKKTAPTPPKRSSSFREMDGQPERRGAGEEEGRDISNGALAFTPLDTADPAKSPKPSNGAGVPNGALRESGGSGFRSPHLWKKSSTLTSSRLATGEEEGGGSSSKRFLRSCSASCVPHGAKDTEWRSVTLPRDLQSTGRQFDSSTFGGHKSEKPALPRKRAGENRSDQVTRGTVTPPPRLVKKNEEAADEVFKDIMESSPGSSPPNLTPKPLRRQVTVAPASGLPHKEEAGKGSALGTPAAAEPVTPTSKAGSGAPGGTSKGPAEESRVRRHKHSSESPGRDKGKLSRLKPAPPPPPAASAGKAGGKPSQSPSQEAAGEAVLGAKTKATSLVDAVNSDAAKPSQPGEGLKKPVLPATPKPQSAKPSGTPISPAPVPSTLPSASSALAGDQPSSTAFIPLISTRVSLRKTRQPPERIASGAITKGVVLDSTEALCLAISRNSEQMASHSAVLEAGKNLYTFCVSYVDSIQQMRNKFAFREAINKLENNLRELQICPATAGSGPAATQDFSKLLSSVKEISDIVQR

CC(C)c1ccc(C(=O)Nc2ccc(CN3CCN(C)CC3)c(C(F)(F)F)c2)cc1C#Cc1cnc2cccnn12  IC50 (enzyme activity, inhibitor, ADP detection): 31 nM
CC(=O)N[C@@H](Cc1c[nH]c2ccccc12)C(=O)N[C@@H](Cc1c[nH]c2ccccc12)C(=O)N[C@@H](Cc1c[nH]c2ccccc12)C(=O)N[C@@H](Cc1c[nH]c2ccccc12)C(=O)N[C@@H](Cc1c[nH]c2ccccc12)C(=O)N[C@@H](Cc1c[nH]c2ccccc12)C(=O)NCCCC[C@@H]1NC(=O)[C@H](CCCNC(=N)N)NC(=O)[C@H](CCCNC(=N)N)NC(=O)[C@H](CCCNC(=N)N)NC(=O)[C@H](CCCNC(=N)N)NC(=O)[C@H](CCCNC(=N)N)NC(=O)[C@H](CCCNC(=N)N)NC1=O  IC50 (enzyme activity, inhibitor, radiometric): 1020 nM
CCCc1ccc(NC(=O)c2ccccc2NCc2ccc(=O)[nH]c2)cc1C(F)(F)F  IC50 (enzyme activity, inhibitor): 330000 nM
Cc1ccc2oc(-c3c4c(N)n[nH]c(=O)c4nn3-c3ccc(NC(=O)/C=C/CN(C)C)cc3)c(C)c2c1  IC50 (enzyme activity, inhibitor, ELISA): > 1000 nM
N=C(N)NCCC[C@@H]1NC(=O)[C@H](Cc2c[nH]c3ccccc23)NC(=O)[C@H](CCCNC(=N)N)NC(=O)[C@H](Cc2c[nH]c3ccccc23)NC(=O)[C@H](CCCNC(=N)N)NC(=O)[C@H](Cc2c[nH]c3ccccc23)NC(=O)[C@H](CCCNC(=N)N)NC(=O)[C@H](Cc2c[nH]c3ccccc23)NC(=O)[C@H](CCCNC(=N)N)NC(=O)[C@H](Cc2c[nH]c3ccccc23)NC(=O)[C@H](CCCNC(=N)N)NC(=O)[C@H](Cc2c[nH]c3ccccc23)NC(=O)[C@H](CCCNC(=N)N)NC(=O)[C@H](Cc2c[nH]c3ccccc23)NC(=O)[C@H](CCCNC(=N)N)NC(=O)[C@H](Cc2c[nH]c3ccccc23)NC(=O)[C@H](CCCNC(=N)N)NC(=O)[C@H](Cc2c[nH]c3ccccc23)NC1=O  IC50 (enzyme activity, inhibitor, radiometric): 350 nM
CCCCCCCC(=O)OCCN1CCN(c2cc(Nc3ncc(C(=O)Nc4c(C)cccc4Cl)s3)nc(C)n2)CC1  IC50: 51 nM
CC(=O)N[C@@H](Cc1c[nH]c2ccccc12)C(=O)N[C@@H](Cc1c[nH]c2ccccc12)C(=O)N[C@@H](Cc1c[nH]c2ccccc12)C(=O)N[C@@H](Cc1c[nH]c2ccccc12)C(=O)N[C@@H](Cc1c[nH]c2ccccc12)C(=O)N[C@@H](Cc1c[nH]c2ccccc12)C(=O)N[C@@H](Cc1c[nH]c2ccccc12)C(=O)NCCCC[C@@H]1NC(=O)[C@H](CCCNC(=N)N)NC(=O)[C@H](CCCNC(=N)N)NC(=O)[C@H](CCCNC(=N)N)NC(=O)[C@H](CCCNC(=N)N)NC(=O)[C@H](CCCNC(=N)N)NC1=O  IC50 (enzyme activity, inhibitor, radiometric): 1490 nM
Cc1nc(Nc2ncc(C(=O)Nc3c(C)cccc3Cl)s2)cc(N2CCN(CCOC(=O)[C@@H](N)CCC(=O)O)CC2)n1  IC50: 4.4 nM
COc1cc(-c2cnc3nc2NCCCNS(=O)(=O)c2cccc(c2)N3)ccc1F  EC50 (target engagement in cells, BRET): 27000 nM
Cc1nc(Nc2ncc(C(=O)Nc3c(C)cccc3Cl)s2)cc(N2CCN(CCOC(=O)[C@@H](N)CS)CC2)n1  IC50: 68 nM
COCCOc1ccc2cc1S(=O)(=O)NCCCNc1nc(ncc1-c1ccc(F)c(OC)c1)N2  EC50 (target engagement in cells, BRET): 32000 nM

Some of these lines once more:
N=C(N)NCCC[C@@H]1NC(=O)[C@H](Cc2c[nH]c3ccccc23)NC(=O)[C@H](CCCNC(=N)N)NC(=O)[C@H](Cc2c[nH]c3ccccc23)NC(=O)[C@H](CCCNC(=N)N)NC(=O)[C@H](Cc2c[nH]c3ccccc23)NC(=O)[C@H](CCCNC(=N)N)NC(=O)[C@H](Cc2c[nH]c3ccccc23)NC(=O)[C@H](CCCNC(=N)N)NC(=O)[C@H](Cc2c[nH]c3ccccc23)NC(=O)[C@H](CCCNC(=N)N)NC(=O)[C@H](Cc2c[nH]c3ccccc23)NC(=O)[C@H](CCCNC(=N)N)NC(=O)[C@H](Cc2c[nH]c3ccccc23)NC(=O)[C@H](CCCNC(=N)N)NC(=O)[C@H](Cc2c[nH]c3ccccc23)NC(=O)[C@H](CCCNC(=N)N)NC(=O)[C@H](Cc2c[nH]c3ccccc23)NC1=O  IC50 (enzyme activity, inhibitor, radiometric): 350 nM
CC(=O)N[C@@H](Cc1c[nH]c2ccccc12)C(=O)N[C@@H](Cc1c[nH]c2ccccc12)C(=O)N[C@@H](Cc1c[nH]c2ccccc12)C(=O)N[C@@H](Cc1c[nH]c2ccccc12)C(=O)N[C@@H](Cc1c[nH]c2ccccc12)C(=O)N[C@@H](Cc1c[nH]c2ccccc12)C(=O)N[C@@H](Cc1c[nH]c2ccccc12)C(=O)NCCCC[C@@H]1NC(=O)[C@H](CCCNC(=N)N)NC(=O)[C@H](CCCNC(=N)N)NC(=O)[C@H](CCCNC(=N)N)NC(=O)[C@H](CCCNC(=N)N)NC(=O)[C@H](CCCNC(=N)N)NC1=O  IC50 (enzyme activity, inhibitor, radiometric): 1490 nM
